Assay results collected from several papers.
Numbered parts are unrelated; each lists some results of a single study. “And” joins repeats or separate records; there may be more than shown. Positions count from the first letter of the parent shown.
Sequence of UniProt Q08345 (whole entry, looked up): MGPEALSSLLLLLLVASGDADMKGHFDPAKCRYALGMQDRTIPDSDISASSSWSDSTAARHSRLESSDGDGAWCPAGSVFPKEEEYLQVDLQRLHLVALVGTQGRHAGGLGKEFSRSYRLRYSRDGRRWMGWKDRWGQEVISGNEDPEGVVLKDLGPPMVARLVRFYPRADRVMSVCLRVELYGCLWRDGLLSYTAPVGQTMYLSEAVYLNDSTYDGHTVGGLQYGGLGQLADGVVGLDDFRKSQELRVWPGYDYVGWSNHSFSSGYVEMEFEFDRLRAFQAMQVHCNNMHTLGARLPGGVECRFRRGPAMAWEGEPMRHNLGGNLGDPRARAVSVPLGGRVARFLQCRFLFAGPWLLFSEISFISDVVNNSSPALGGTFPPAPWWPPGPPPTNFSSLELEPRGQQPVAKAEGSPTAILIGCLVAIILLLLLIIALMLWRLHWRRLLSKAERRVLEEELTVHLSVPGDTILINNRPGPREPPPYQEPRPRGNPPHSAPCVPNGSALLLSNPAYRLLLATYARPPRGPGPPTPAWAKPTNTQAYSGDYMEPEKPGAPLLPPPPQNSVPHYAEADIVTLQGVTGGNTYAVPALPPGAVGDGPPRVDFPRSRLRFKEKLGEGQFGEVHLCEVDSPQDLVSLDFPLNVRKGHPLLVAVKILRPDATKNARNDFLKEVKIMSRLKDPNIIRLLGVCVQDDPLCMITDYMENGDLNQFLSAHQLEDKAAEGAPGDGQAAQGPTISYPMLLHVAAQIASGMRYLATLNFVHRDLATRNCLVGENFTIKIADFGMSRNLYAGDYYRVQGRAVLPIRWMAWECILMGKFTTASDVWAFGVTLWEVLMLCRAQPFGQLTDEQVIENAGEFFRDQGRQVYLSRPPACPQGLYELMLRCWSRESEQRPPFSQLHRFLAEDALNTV

Set 1
Target: RNA binding protein fox-1 homolog 2, RRM domain, GST-SBP tag (RBFOX2, Homo sapiens, UniProt O43251-10, residues 100-194)
Method: RNA Bind-n-Seq
Molecule type: RNA
Medium: in vitro
Concentration: 365 nM
Notes: natural RNA segment, single round, ends assumed
Baseline: no-protein control
Direction: higher = stronger binding
Constant ends, left off below: GGGAGUUCUACAGUCCGACGAUC … UGGAAUUCUCGGGUGCCAA
Construct (chain): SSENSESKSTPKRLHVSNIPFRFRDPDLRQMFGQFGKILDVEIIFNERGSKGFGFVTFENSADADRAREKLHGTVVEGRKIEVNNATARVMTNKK
Oligonucleotide	RBNS enrichment (R)
CUGGGUUCAAUCACAAUACUGAAAAGUAGGCCAAAAAACAUUCUGAAAAUGAAAUAUUUGGGUUUUUUUUUAUAACCUUUAGUGACUAAAUAAAGACAAAUCUAAGAGAC	0.387
AGCCUGAUUUUGUUCCUGUUUUUCAUCUACGAGGGUAAAAGCAUACCCCGGGAAAUCCCUGUGGCCAGUUUGAACACCCCUGCUGUAACCUUCCCUCUGUUCCAUGGUCU	0.59
GGCAUGGGUUUCGUCCAAAAAUCAUGAAUUUUUCUAAUUCUACUAUUUUACAACUUGCUGAGACACAAAUACUGUGCCCUUCCUGUCCUACUGACCACUGGGUAUGUAAU	0.514
CUGGAAAUCACUGCCACAGUACAGGCUGUGACUGCAGAUGCCAAAAUGAUUAGGAUGCCACAGAUGGUACAUCUAGUGGUCCAGAUAGGAUCCCUCCUGAAAUCUCCUAC	0.245
AAUAUUAAGGUCUUGCCAAGCUUCUGAUGAUUCACACCUGUACUACUGAUUAUUAAGCAGGACAGACUGAGCUUUCUGUUGCAAAUACCUUGGAGGAGAAAGUAAUUUCU	0.273
AUAUCAGUUAUAGACAAAGGCCAUGGGACUAUGCUAAACCAAUAAAACCUUAUUAGCAAAUCUUUAGAUUCUGACUUAGCCAGAGCAUCUGAGUGUUCAAGUACAGUUUU	0.621
GGUUGUAGAUACACUUUAUAACAUUUUAUAGUUUAAAGAGCUUUAUUAAUGCAAUAAAUUAACUUUGUACACAUUUUUAUAUAAAAAAACAGCAAGUGAUUUCAGAAUGU	0.713
AAUUUAGUUUGGGUGUUCCUCAUCACAUGUAUAUACGGACUAUCCAUUGAACUUAAUCUGUGUGGCUUCCAGCCCUCCCUUUACCAAAAGGGUCAAUGGACCUUUCUUUG	0.33

Set 2
Target: CCNA2, cyclin fold, Cln2 fusion (human)
Method: yeast growth competition, sequencing
Medium: yeast
Notes: strong parent motif
Baseline: not given
Direction: higher = stronger binding
Starting sequence: viral docking peptide; CKVKRKLFGSENI
Substitution	normalised enrichment score
CKVKRKAFGSENI [L7A]	0.931
CKVKRALFGSENI [K6A]	4.66
CKAKRKLFGSENI [V3A]	5.6
CKVKKKLFGSENI [R5K]	3.53
CKVKAKAFGSENI [R5A L7A]	0.428
CKVKRKLFASENI [G9A]	5.6
CKVARKLFGSENI [K4A]	5.27
CAVKRKLFGSENI [K2A]	4.16
CKVKRKLFGSEAI [N12A]	4.75
CKVKKKLLGSENI [R5K F8L]	0.763

Set 3
Partner: ARF19 948-1086 (Arabidopsis thaliana, UniProt Q8RYC8)
Method: two-hybrid
Baseline: out of 4 tests
Direction: higher = firmer interaction
B1: ARF12 500-593 (Arabidopsis thaliana, UniProt Q9XID4); chain TEIQNKQFSSSRTCTKVQMQGVTIGRAVDLSVLNGYDQLILELEKLFDIKGQLQTRNQWEIAFTDSDEDKMLVGDDPWPEFCNMVKKIFIQKRR
B2: ARF11 500-622 (Arabidopsis thaliana, UniProt Q9ZPY6); chain SPKEQKQQTSTRSRIKVQMQGTAVGRAVDLTLLRSYDELIKELEKMFEIEGELSPKDKWAIVFTDDEGDRMLVGDDPWNEFCKMAKKLFIYPSDEVKKMRSKSLLGDKGTIVNLESDQRTVHV
B3: ARF18 482-602 (Arabidopsis thaliana, UniProt Q9C5W9); chain QKKQQTSRSRTKVQMQGIAVGRAVDLTLLKSYDELIDELEEMFEIQGQLLARDKWIVVFTDDEGDMMLAGDDPWNEFCKMAKKIFIYSSDEVKKMTTKLKISSSLENEEYGNESFENRSRG
B4: IAA29 (Arabidopsis thaliana, UniProt Q93WC4); chain MELDLGLSLSPHKSSKLGFNFDLNKHCAIEGAASCLGTEKLRFEATFGLGNVEENCYMPKQRLFALNGQPNEEDEDPLESESSIVYDDEEENSEVVGWPPVKTCMIKYGSYHHRHIRNHHHCPYHHRGRRITAMNNNISNPTTATVGSSSSSSISSRSSMYVKVKMDGVAIARKVDIKLFNSYESLTNSLITMFTEYEDCDREDTNYTFTFQGKEGDWLLRGDVTWKIFAESVHRISIIRDRPCAYTRCLF
Target sequence (chain): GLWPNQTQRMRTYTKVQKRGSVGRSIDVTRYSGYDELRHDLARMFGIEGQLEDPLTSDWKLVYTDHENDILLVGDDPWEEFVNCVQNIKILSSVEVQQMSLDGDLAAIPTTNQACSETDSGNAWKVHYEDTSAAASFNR
Sequence	positive tests
B1 (ARF12 500-593)	0
B2 (ARF11 500-622)	0
B3 (ARF18 482-602)	0
B4 (IAA29)	3

Further values, each from its own experiment
Molecule	target	test	test system	setting	scale	quantity	result
Cc1cc(NC(=O)c2cccc(S(F)(F)(F)(F)F)c2)cc(-n2ccn3nc(-c4cccnc4)cc23)c1	DDR1 (Homo sapiens, UniProt Q08345)	target engagement, NanoBRET	live cells			EC50	0.129 µM and 0.264 µM and 0.216 µM
PhoQ, residues 284 288 289 292 302 303 TVTVVA	PhoP, residues 12 14 15 18 19 LHATL (Escherichia coli, UniProt P23836)	Sort-seq, refers to: YFP reporter	E. coli	PhoQ-PhoP variant library, added: 10 µM Mg2+	baseline: high Mg2+ state, higher = stronger signaling	fold induction	1.55

Some of these lines once more (set 1):
Oligonucleotide	RBNS enrichment (R)
CUGGAAAUCACUGCCACAGUACAGGCUGUGACUGCAGAUGCCAAAAUGAUUAGGAUGCCACAGAUGGUACAUCUAGUGGUCCAGAUAGGAUCCCUCCUGAAAUCUCCUAC	0.245
GGCAUGGGUUUCGUCCAAAAAUCAUGAAUUUUUCUAAUUCUACUAUUUUACAACUUGCUGAGACACAAAUACUGUGCCCUUCCUGUCCUACUGACCACUGGGUAUGUAAU	0.514
CUGGGUUCAAUCACAAUACUGAAAAGUAGGCCAAAAAACAUUCUGAAAAUGAAAUAUUUGGGUUUUUUUUUAUAACCUUUAGUGACUAAAUAAAGACAAAUCUAAGAGAC	0.387
